Experimental data pooled from the literature.
Each numbered part is a random draw from the data of one study; scales do not carry over between parts.

Set 1 — technique: protein binding microarray; molecule type: double-stranded DNA, one strand shown; medium: in vitro; tested at: not given; reference: not given; direction: higher = stronger binding
Target: Histone acetyltransferase KAT6A, both winged helices, GST fusion (KAT6A, Homo sapiens, UniProt Q92794, residues 1-181)
Setting: 8-mer, flanks averaged, mean of 2 arrays, mostly near background
Target sequence (chain): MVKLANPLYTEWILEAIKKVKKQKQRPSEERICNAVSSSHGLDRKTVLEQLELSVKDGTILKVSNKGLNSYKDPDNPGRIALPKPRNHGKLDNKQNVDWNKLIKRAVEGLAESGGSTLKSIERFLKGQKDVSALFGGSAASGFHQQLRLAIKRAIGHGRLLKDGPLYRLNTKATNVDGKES
Strand	E-score
CGGCGAAA	0.279
GGGGCGAC	-0.0053
CAACGAAA	-0.0089
CAATCTAG	-0.0172
ACGCACAC	0.133
ACAACACT	-0.141
AAAAAAGC	0.0403
CATATAAA	0.0818
CCGTAGAA	0.11
CCCGAAAG	-0.0555
CCGAGCTC	0.0814
GCTACCAC	-0.109
ACAACCTA	-0.148
AATTAGGG	-0.196
GGGTATTA	0.0299
AGTGTAAT	-0.129

Set 2 — technique: RNA Bind-n-Seq; molecule type: RNA; medium: in vitro; tested at: 365 nM; reference: no-protein control; direction: higher = stronger binding
Target: RNA binding protein fox-1 homolog 2, RRM domain, GST-SBP tag (RBFOX2, Homo sapiens, UniProt O43251-10, residues 100-194)
Setting: natural RNA segment, single round, ends assumed
All sequences stand within: GGGAGUUCUACAGUCCGACGAUC … UGGAAUUCUCGGGUGCCAA
Construct (chain): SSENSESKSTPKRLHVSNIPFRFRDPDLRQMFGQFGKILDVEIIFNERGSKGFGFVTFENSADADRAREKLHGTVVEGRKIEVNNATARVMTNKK
Strand	RBNS enrichment (R)
GCCAAAGAUGGCUGGACCAUGGAAGAGAGUACCCUAUGAUGGGUUUCAACCUUGACUCGUAAAUACUUCCCUCUGCAUGGGGGUGAUCGUAGAGAGAAUCAAGGCUACCA	0.288
UCUACCUUUCAUAUAAUGCUACAUUGAAGGCACAGAAUUUGCUACCAUCUCUCUCUCCCCCUACCUACCAAACUAUCCACAAUUUAAAUAAAGAACUGCUGUGUCUGACU	2.53
UCCCCCCUUGUGAAUGUUUUCUAACUUUGUCUUGGUAAUUGCAAUUUAACUAGGUGCGGUGGCUACUAAAGUUCGAAGGCACGAUAUGCGUGUCCAUCCUUACCAAAGGA	0.46
AAGCCCAAGCGGGAAACCCGCCCGGGAACUGUUCGCAGUUGACAACAAACUCUGACGCCCUCUGUUUUCAGUGAGUAGUGAACUCCGGAAGCACAAAGGCCAGCGUGACA	0.214
CCAGAAUCCUUGACUCCCUGCCCCUUGUAUAAAUUGGACAGCUUAGGACUUUUAAACUUUAGAUCAAAAGAUAUGGUCCUUUUUAACUUUAUUUUUAAGGAGCAGACUUU	0.422
AAUGGCUUUCACUUUCUCUUUUGUUUUAAAUGACUCAUAGGUCCCUGACAUUUAGUUGAUUAUUUUCUGCUACAGACCUGGUACACUCUGAUUUUAGAUAAAGUAAGCCU	0.347
CUGGAAUAGAAACCACACACUGGCUUGCUGUGCACCAGCCACUUUGCAUCUAAUCCAAGCUUUGAAGGGUGUUGCUUGGGAGGAAACAAAUACAGCCUUCCAUCUUCACU	0.474
UUCUACUCUCAGAACUGCCCCAGUGCUUGCUGGGUAGACUUUUCAUCUAAGACAGUGGAUUUUUCAAAAAGACCUUUUUUCUAUUGUUUGAGAAAAAUCAUUGUUUCUUG	0.504
CUUGGUGGCAACUCCUUUGCAAUGCAGCUGGCAGCGACAUCCUUAUAAAAACAUGUGCUAAAGCUCUGUCCUCUGUUAGAGGUGCCUUUUAGGAAUACGGGGAGUGAAGG	0.755
AUUCCCGUUUAUAUUUAUAUCUAUAUUGUUCUCAUGGUAAAUUGCCAAAAUAAAAGCAUUUUAUAUAUUGAGUUGGGGUGGGGGUGGGAUAGAUCUUCUGUGUCGUUGCA	2.78
AAAAAAAAAAUUCCAUCCUCGUAUCUCAUGUGUACACAUAUGAACACACACACUGCACAUGUAACUGCCCUUCUUCUUUCUGGCUCCUAAACGCCUUUGAGCUUGUUGGU	0.737
CUACCACAGAUGCCUGAAGAAGUUCCUCACUAUCUGCAAAUGUGGCUCUCAGGCCCUUCCUGAUGUGAUGAAUGAAUCUACUAAUCAUUUCUUGACCAUUCAUUUUAUCA	0.384

Set 3 — technique: RNA Bind-n-Seq; molecule type: RNA; medium: in vitro; tested at: 200 nM; setting: whole 134-nt RNA, ends assumed; added: 150 mM KCl; reference: input library; direction: higher = stronger binding
Target: Fragile X messenger ribonucleoprotein 1, C-terminal low-complexity region (Fmr1, Mus musculus, UniProt P35922)
All sequences stand within: GGGAGUUCUACAGUCCGACGAUC … UGGAAUUCUCGGGUGUCAAGG
Strand	log2 enrichment
CCUCAAGUCCUGUGCUACACAUCGUAUGUACCGAAUCGGCCGGCCGGGGCCGGAAAGUAUUAUGUUACGCCGUUCGGAUCUGCACUUCCA	0.0199
CUGUGCUACACAUCGUAUGUACCGAAUCGGGUUUUUUUGGGGUUUUUUUGGGUUUUUUUGGGAAAGUAUUAUGUUACGCCGUUCGGAUCU	-0.0856
UCCUGUGCUACACAUCGUAUGUACCGAAUCGGAAAAAAAGGGAAAAAAAGGAAAAAAAGGAAAGUAUUAUGUUACGCCGUUCGGAUCUGC	-0.303
GCAGGGAGUAAAAACAAAUGGAAAUGCUUCGGAUAGUGGCAGGGGUGGGGGUUGCUAAGGAAAGGGUGGGAUGGGAGUGGGUAAAGAGUU	0.387
CACAGACAACACGCAAACACACAGACACAGAGGGAAGGGGUUGGGAUGGGGACAGGGUGCACAGCAGGGCGGGGUAGGACCCCAGCCCCU	1.22
UCCUCAAGUCCUGUGCUACACAUCGUAUGUACCGAAUCGGCGGGCGGCGGGGAAAGUAUUAUGUUACGCCGUUCGGAUCUGCACUUCCAG	0.323
CAAGUCCUGUGCUACACAUCGUAUGUACCGAAUCGGUUUUGGUUUUGGGUUUUGGAAAGUAUUAUGUUACGCCGUUCGGAUCUGCACUUC	-0.785
UCCUGUGCUACACAUCGUAUGUACCGAAUCGGGGAGGGGUUUUUGGGGUUUUUUUGGGGAAAGUAUUAUGUUACGCCGUUCGGAUCUGCA	0.827
CCUCAAGUCCUGUGCUACACAUCGUAUGUACCGAAUCGGGCCGGCCGGCCGGGAAAGUAUUAUGUUACGCCGUUCGGAUCUGCACUUCCA	0.0394
UAACUUUAGAGGAGGAUCUGAUGGAUAUGGCAGUGGACGUGGAUUUGGGGAUGGCUAUAAUGGGUAGGGAGGAGGACCUGGAGGUGGCAA	0.22

Set 4 — technique: universal PBM; molecule type: double-stranded DNA, one strand shown; medium: in vitro; tested at: 600 nM; direction: higher = stronger binding
Target: Sal-like protein 4, full length isoform A (SALL4, Homo sapiens, UniProt Q9UJQ4, residues 1-1053)
Sequence of UniProt Q9UJQ4 (whole entry, looked up): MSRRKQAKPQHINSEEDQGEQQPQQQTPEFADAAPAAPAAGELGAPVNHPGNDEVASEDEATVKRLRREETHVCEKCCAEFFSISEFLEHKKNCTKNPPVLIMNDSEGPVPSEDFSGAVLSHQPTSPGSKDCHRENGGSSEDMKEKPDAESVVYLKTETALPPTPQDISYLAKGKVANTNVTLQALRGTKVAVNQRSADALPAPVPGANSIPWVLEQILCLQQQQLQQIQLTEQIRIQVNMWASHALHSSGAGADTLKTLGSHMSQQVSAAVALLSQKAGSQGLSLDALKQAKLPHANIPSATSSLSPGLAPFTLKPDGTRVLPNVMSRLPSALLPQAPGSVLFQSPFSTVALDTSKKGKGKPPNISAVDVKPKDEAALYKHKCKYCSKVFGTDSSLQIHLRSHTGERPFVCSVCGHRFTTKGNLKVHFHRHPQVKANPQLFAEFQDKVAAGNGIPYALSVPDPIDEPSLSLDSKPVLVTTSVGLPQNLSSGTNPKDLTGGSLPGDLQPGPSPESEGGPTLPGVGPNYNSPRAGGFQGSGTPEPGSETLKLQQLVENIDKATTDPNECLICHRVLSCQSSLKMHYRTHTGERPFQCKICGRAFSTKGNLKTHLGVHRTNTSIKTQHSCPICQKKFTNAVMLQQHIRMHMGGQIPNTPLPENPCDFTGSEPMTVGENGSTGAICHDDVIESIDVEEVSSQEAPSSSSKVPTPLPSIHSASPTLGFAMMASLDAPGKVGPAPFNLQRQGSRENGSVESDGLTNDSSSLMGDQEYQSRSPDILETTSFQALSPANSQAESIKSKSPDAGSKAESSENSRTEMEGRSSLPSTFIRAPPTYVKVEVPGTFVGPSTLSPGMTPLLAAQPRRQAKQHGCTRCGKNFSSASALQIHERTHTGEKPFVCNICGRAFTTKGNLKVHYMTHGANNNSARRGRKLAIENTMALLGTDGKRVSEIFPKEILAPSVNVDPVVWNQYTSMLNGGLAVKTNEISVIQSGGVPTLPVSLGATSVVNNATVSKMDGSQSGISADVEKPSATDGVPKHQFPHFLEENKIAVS
Setting: 8-mer, flanks averaged, mean of replicates
Strand	E-score
TATCAAAA	0.323
ACAGATCC	0.0184
AGGTCCTG	-0.174
ACTCCACG	-0.175
AATCATAA	0.451
AGTTTATA	0.358
AACAAGTC	0.0609
CACGCTTA	0.0197
AAGTAGCT	0.0314
CTGTTACA	0.0812
CCACGCCA	-0.0693
AAGTCCAA	0.194
ACGATCAC	-0.119
GGAACTAA	0.00392
ATATCACC	0.251
ACCCGATG	-0.198
AGACTATA	0.21
GAACTGCA	0.00496

For quick reference, copied from above (set 1):
Strand	E-score
AAAAAAGC	0.0403
CATATAAA	0.0818
CCGTAGAA	0.11
CCCGAAAG	-0.0555
CCGAGCTC	0.0814
GCTACCAC	-0.109
ACAACCTA	-0.148
AATTAGGG	-0.196
